# Published values of several laboratories.
# Every numbered part comes from another study and shows a few of its results, in no order.

# Study 1 — method: protein binding microarray; molecule type: double-stranded DNA, one strand shown; matrix: in vitro; tested at: not given; reference: not given; reading: higher = stronger binding
# Target: Histone acetyltransferase KAT6A, winged helix 1, GST fusion (KAT6A, Homo sapiens, UniProt Q92794, residues 1-85)
# Setting: 8-mer, flanks averaged, mean of 2 arrays, mostly near background
# Construct (chain): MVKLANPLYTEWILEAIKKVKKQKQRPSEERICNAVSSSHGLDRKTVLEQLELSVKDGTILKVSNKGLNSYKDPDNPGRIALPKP
Strand,E-score
CTGTGCTC,-0.17
CCGACGCG,0.465
CGTCGCCA,0.186
AGCCGCAC,0.21
ATCATCCA,-0.27
TCGATTAA,-0.138
GTGGGGCA,-0.1
GCAGCTCA,-0.213
GATGAAAC,-0.0508
CCTTAAAG,-0.224
ACCGTATC,0.243
CTAGATAA,-0.189
TGAACTCA,-0.171
AGTCGTAC,-0.0316
AGATTATA,-0.0156
AATCCTCG,-0.119
CATCTGGC,-0.21
ACCAGTGG,-0.177
TAATAGAA,-0.174
AAGCTGTG,-0.194
GTATGTCA,-0.12

# Study 2 — method: protein-binding microarray; molecule type: double-stranded DNA, one strand shown; matrix: in vitro; tested at: not given; reading: higher = stronger binding
# Target: Protein C-ets-1 (ETS1, Homo sapiens, UniProt P14921, residues 1-441, Y397A, full length assumed)
# Setting: k-mer, scored over probes, only values ≥0.25
# Target sequence (chain): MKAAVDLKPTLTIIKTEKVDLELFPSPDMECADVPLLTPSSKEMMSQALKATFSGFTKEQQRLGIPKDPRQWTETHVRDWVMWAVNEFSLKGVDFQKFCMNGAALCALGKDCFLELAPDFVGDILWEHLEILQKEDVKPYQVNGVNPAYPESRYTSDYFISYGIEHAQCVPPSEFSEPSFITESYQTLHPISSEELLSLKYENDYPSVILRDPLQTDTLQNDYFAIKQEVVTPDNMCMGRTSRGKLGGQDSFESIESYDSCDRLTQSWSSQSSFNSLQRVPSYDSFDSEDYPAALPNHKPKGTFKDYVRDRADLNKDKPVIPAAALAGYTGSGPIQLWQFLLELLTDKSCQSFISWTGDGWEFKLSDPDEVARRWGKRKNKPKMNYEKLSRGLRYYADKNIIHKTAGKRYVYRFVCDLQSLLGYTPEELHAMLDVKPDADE
Strand,E-score
CCGCCCCA,0.35
ACTGTTTG,0.265
CAGCAAAA,0.27
ACCATTAA,0.254
GATTGCCA,0.356
ACGGATGC,0.3
ATATACAT,0.311
CAATGTCG,0.261
ATGACATA,0.262
CGGTTTGC,0.31
CCAAACAA,0.252
AGGCGGGG,0.258
ATCGCGCA,0.276
GGCATGCC,0.264
GTGTACAA,0.3
CAATTTAC,0.259
TGCGCACA,0.321
ATACGGCA,0.322
GTTTGCCA,0.409
GGCGGGGA,0.325
CCGACACA,0.338
GCCTCCCC,0.256
GATTTGCA,0.266
ATAATTGC,0.27
ACAATCAT,0.353

# Study 3 — method: protein-binding microarray; molecule type: double-stranded DNA, one strand shown; matrix: in vitro; tested at: 250 nM; setting: 60-bp whole probe; with: salmon DNA 0.4 mg/ml; reference: random background probes; reading: higher = stronger binding; shared flanks, not repeated: GCCTAGCAC … GTCTTGATTCGCTTGACGCTGCTG
# Target: Interferon regulatory factor 5, full length, phosphomimetic (IRF5, Homo sapiens, UniProt Q13568-2, residues 1-514, K96S/S451D/S453D/S456D/S462D)
Strand,log fluorescence [z-score]
GACGGACTGGACTATCAGGACGTGCTA,-0.196
TAAATTCTGAAAATGGAAACGTGCTAG,0.63
GACGGTTTCCTTTCCCTGCCGTGCTAG,1.5
GACGCTCTCGGTATCGGGACGTGCTAG,1.2
GACGGACTAGGGACTGGGGACGTGCTA,-0.354
TTAGGTTTCGACTATCGGGTAGTGCTA,8.16
TTAGAACTGAATCTCGATTAGTGCTAG,0.429
ACACTCTTCTTTTGCTAATTGTGCTAG,1.26
TGAGATTTCGGGTATCGATTAGTGCTA,6.66
TTAGAACTGGGGAATCGATTAGTGCTA,0.333
TTCTTGCGGAGTTTCTTGCAGTGCTAG,0.709
TTAGGTCTACTTATCCTTTAGTGCTAG,-0.0952
TCAAGTCCCACATCTCTGACTGTGCTA,-0.31
TCCTCTTTCACTGGTCCTCATGTGCTA,3.57
CTGTTTTTCTCACCACATTTTGTGCTA,1.5
TTAGGACTGGGTTTAGGTTAGTGCTAG,-0.359
GACGGTCTCCTTACCCTGACGTGCTAG,-0.218
TTAGGTTTCGGTCTCGGATAGTGCTAG,9.93
TTAGGTATCGGGTTTGGGTTAGTGCTA,3.1
TTCCCTTTTAAGTTCTCTGAGTGCTAG,0.789
GACCGTCTCCTTCTCCTGACGTGCTAG,-0.132

# Study 4 — method: RNA Bind-n-Seq; molecule type: RNA; matrix: in vitro; tested at: 200 nM; setting: whole 134-nt RNA, ends assumed; with: 150 mM KCl; reference: input library; reading: higher = stronger binding
# Target: Fragile X messenger ribonucleoprotein 1, C-terminal low-complexity region (Fmr1, Mus musculus, UniProt P35922)
# Shared flanks, not repeated: GGGAGUUCUACAGUCCGACGAUC … UGGAAUUCUCGGGUGUCAAGG
Strand,log2 enrichment
UCCUGUGCUACACAUCGUAUGUACCGAAUCGGGAAAAAAAGGAAAAAAAGGAAAAAAAGGAAAGUAUUAUGUUACGCCGUUCGGAUCUGC,-0.181
UUUCACAGAGAAGCAAAUGCUGGCACAAGGAUACCCUGCUUACACGACAUCGUGCGCCUGGCUGGGGUACUCAGAUGACACGUUGAAGCA,-0.375
GUCCUGUGCUACACAUCGUAUGUACCGAAUCGGUUUUUGGGGUUUUUGGGUUUUUGGGAAAGUAUUAUGUUACGCCGUUCGGAUCUGCAC,-0.142
UGGGAGGUGGAUUUUGUUUAUUUUUUUAGCUCAUUUCCAGUGGUGGGAAUUUUUUUUUAAUAUGUGUCAUGAAUAAAGUUGUUUUUGAAA,-0.0796
ACCAUGCAGGUGGGCAUCUUUGGGAAGUGGGAAAAGGGGGGGAUAGGGAGGGGGGUAACACUUUGGGAACAGGUGGUCCCAGGUCGUUUC,0.753
UCAAGUCCUGUGCUACACAUCGUAUGUACCGAAUCGGGGAAAGGGAAAGGAAAGGAAAGUAUUAUGUUACGCCGUUCGGAUCUGCACUUC,-0.5
AAGUCCUGUGCUACACAUCGUAUGUACCGAAUCGGGUGGGAAAGGGUUUUUUUGGGAAAGUAUUAUGUUACGCCGUUCGGAUCUGCACUU,0.742
UCAAGUCCUGUGCUACACAUCGUAUGUACCGAAUCGGGAAAGGGAAAGGGAGGGAAAGUAUUAUGUUACGCCGUUCGGAUCUGCACUUCC,0.876
CCUCAAGUCCUGUGCUACACAUCGUAUGUACCGAAUCGGGAGGGUGGGUGGGAAAGUAUUAUGUUACGCCGUUCGGAUCUGCACUUCCAG,1.59
AGUCCUGUGCUACACAUCGUAUGUACCGAAUCGGGCCCCCGGCCCCCGGGGCCCCCGGAAAGUAUUAUGUUACGCCGUUCGGAUCUGCAC,-0.603
UCCUCAAGUCCUGUGCUACACAUCGUAUGUACCGAAUCGGAGGGAGGGAGGGAAAGUAUUAUGUUACGCCGUUCGGAUCUGCACUUCCAG,1.34
CUCAAGUCCUGUGCUACACAUCGUAUGUACCGAAUCGGUUGGUUGGGGUUGGGGAAAGUAUUAUGUUACGCCGUUCGGAUCUGCACUUCC,-0.077
CUCAAGUCCUGUGCUACACAUCGUAUGUACCGAAUCGGGGAGGGGAGGGAGGGAAAGUAUUAUGUUACGCCGUUCGGAUCUGCACUUCCA,1.18
UGGCCCUGGUGGCAGGCGGGGAGGAAGAGGUGGCCUCAUGGAUCGUGGUGGUCCCGGUGGAAUGUUCAGAGGUGGCCGUGGUGGAGACAG,0.433

# Study 5 — method: RNA Bind-n-Seq; molecule type: RNA; matrix: in vitro; tested at: 365 nM; reference: no-protein control; reading: higher = stronger binding
# Target: RNA binding protein fox-1 homolog 2, RRM domain, GST-SBP tag (RBFOX2, Homo sapiens, UniProt O43251-10, residues 100-194)
# Setting: natural RNA segment, single round, ends assumed
# Shared flanks, not repeated: GGGAGUUCUACAGUCCGACGAUC … UGGAAUUCUCGGGUGCCAA
# Residues (chain): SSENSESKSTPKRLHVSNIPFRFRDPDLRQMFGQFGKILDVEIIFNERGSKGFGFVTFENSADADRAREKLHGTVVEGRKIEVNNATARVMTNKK
Strand,RBNS enrichment (R)
GGGCUCAUUCCACGCAUUGCCUGCAGCCAUCUGCACACUGCACCUGCUGGCAGCUCCUCCCCAGCAAGGCUGGGCUAGAAGGCAGCUUUAGAAGUGAGCCCCUCUAAUGC,0.628
AAAGUUCCAGAGCCUCCCUCGAAGGUUCUCUACUACUGUAUUCUGUACAUAAUGUACCAUCCCAUGUGGAAUCUGUGAGUGUCCUCUUAAGUAGCGUGGGCUAGCCAAUC,0.338
UGACUGAGUACUGAGAUGCGAAGAGAAGCCGCACUCACCUACCCACCGCUCCCUUGGACGGGCUGCGACCCGCCAUCCUGGGGGUCAACACAGGAGGACAGAAGAGAGUG,0.316
AACCUAAAAGCUCAGAUGCACUUACAGUCUUGUCUGUGGCCUUUGUAUUGUUAUUGGCUGUAAACGUCUGUCUGGACCGAAUAAAGAUUCAUUCACGUGGCCUCUGCUCC,0.468
AAGGAGGAGCCGGCACCUAGCAACUGCGGCCUCGCACGGAACUGCCAUCCUGUGAGGGCAGCGGUGGCGCCCGGCAAAGUUGGAGCCCUUGCGGUACCAGAAAGCAGCGA,0.424
CGGGAGGCUGAGGCAGGAGAAUCGCUUGAACCCAGGAGGCGGAGGUUGCAGUGAGCCAAGAUGGCGCCAUUGCACUCCAGCCUGGGCGACAAGAGCAAAACUCCGUCUCA,0.211
GGCUCCCUUCAUGGCUUGUGAACUGUUAACUUGGUAUCUCAGGUUAAACUGUCAGCUGGUCUAGCCUGAGCGAGGCCUGAGACCAUCAGUCACUAAGAGCAGUGGCUAAC,0.577
AUGAUAGACAAAUACCCAGUGUUUGUUACUUUUUCCAACUACCACUGUAAUGAUAAUCUUUCUCACGUAUAUACAUGCAACUUCUUGGCUUCAUUUCCAUGAAGCUGUUU,0.264
GAAUUUGCACAUGGUGUAGAGAGCUCCCUCUCCUGCCUCUCUGCCCAGCCUUGUUACCUCACUCCUGCUCCAGCCAUUGUGAUGGGCUCAGCCAGCUCCCUGUUCUGAUG,2.29
AGUAUUCUUUUAUCAUAAAUUUUUAGCAUUUAAAAAUUCACUGAUGUACAUUAAGCCAAUAAACUGCUUUAAUGAAUAACAAACUAUGUAGUGUGUCCCUAUUAUAAAUG,0.506
GUUUUCUUUUGUAGGUAUAAAUAAAUACUUGACAAUAAAGGUGUGAAUUUUUUAUUACAUUAAAACUAAAAAGAGUUUAAGUGUACUCUUAAUGUUUUCCUCCAAGCAGU,0.468
AGGGUUCUUAUUUGAGGCUUUGCUAGGCUCAUCUGCUGUGUCCUGGGUAGUCCACUCAUAUUCUUGCAGGGUGAGUCCAUGCUCAGGAGAAUGCGGUCCACCUUUCUAUG,1.03

# For quick reference, copied from above (study 2):
Strand,E-score
ACCATTAA,0.254
GATTGCCA,0.356
ACGGATGC,0.3
ATATACAT,0.311
CAATGTCG,0.261
